Experimental data collected from several papers.
± gives the spread as reported.

Oc1ccc([C@H]2COc3cc(O)ccc3C2)cc1  plasma concentration (human plasma; mean, both sexes): 1.73 µM
NC/C(=C\F)COc1cccc(Cn2c(=S)[nH]c(=O)c3[nH]cnc32)c1  remaining compound (human hepatocytes; 1 µM, 1 h): 75%
CC(C)(C(=O)N1CCOc2c(C#N)cncc2C1)C(F)F  subjects with fatigue TEAE (human, both sexes; oral, 40 mg single dose): 0%
CC[C@H]1OC(=O)[C@H](C)[C@@H](O[C@H]2C[C@@](C)(OC)[C@@H](O)[C@H](C)O2)[C@H](C)[C@@H](O[C@@H]2O[C@H](C)C[C@H](N(C)C)[C@H]2O)[C@](C)(O)C[C@@H](C)C(=O)[C@H](C)[C@@H](O)[C@]1(C)O  amount permeated (starch gel membrane permeability; Gram-negative envelope surrogate; 200 µM, 30 min, pH 7.4): 0.3 nmol
CC[C@H](C)[C@H](NC(=O)[C@H](Cc1ccccc1)NC(=O)[C@H](CCC(=O)O)NC(=O)[C@H](CCCCNC(=O)COCCOCCNC(=O)COCCOCCNC(=O)CC[C@H](NC(=O)CCCCCCCCCCCCCCCCC(=O)O)C(=O)O)NC(=O)[C@H](C)NC(=O)[C@H](C)NC(=O)[C@H](CCC(N)=O)NC(=O)CNC(=O)[C@H](CCC(=O)O)NC(=O)[C@H](CC(C)C)NC(=O)[C@H](Cc1ccc(O)cc1)NC(=O)[C@H](CO)NC(=O)[C@H](CO)NC(=O)[C@@H](NC(=O)[C@H](CC(=O)O)NC(=O)[C@H](CO)NC(=O)[C@@H](NC(=O)[C@H](Cc1ccccc1)NC(=O)[C@@H](NC(=O)CNC(=O)[C@H](CCC(=O)O)NC(=O)C(C)(C)NC(=O)[C@@H](N)Cc1cnc[nH]1)[C@@H](C)O)[C@@H](C)O)C(C)C)C(=O)N[C@@H](C)C(=O)N[C@@H](Cc1c[nH]c2ccccc12)C(=O)N[C@@H](CC(C)C)C(=O)N[C@H](C(=O)N[C@@H](CCCNC(=N)N)C(=O)NCC(=O)N[C@@H](CCCNC(=N)N)C(=O)NCC(=O)O)C(C)C  systolic blood pressure change (hypoglycaemic clamp; type 2 diabetes patients; dose not given, from glucose nadir to recovery): -9.4 mmHg
NC(=O)c1cccnc1  viability (OCI-Ly1; 1 µM, 120 h): 159%
C[C@H]1[C@H](NC(=O)/C(=N\OC(C)(C)C(=O)O)c2csc(N)n2)C(=O)N1S(=O)(=O)O  amount permeated (starch gel membrane permeability; Gram-negative envelope surrogate; 200 µM, 90 min, pH 7.4): 4.92 nmol
Cc1cc(Nc2cc3ncccc3c(N[C@@H]3C[C@H]4CC[C@@H](C3)N4CCC#N)n2)n[nH]1  sneezing incidence (healthy human subjects; oral, 300 mg, 2 weeks, single ascending dose): 0%
Cn1nc2c(=O)n(C3CC3)ccc2c1[C@](O)(c1ccc(C(F)(F)F)nc1)C1CC1  CL (rat Sprague-Dawley male, plasma; intravenous, 1 mg/kg): 1.87 ± 0.211 mL/min/kg
Cc1ccc(C(=O)Nc2ccc(S(=O)(=O)O)c3cc(S(=O)(=O)O)cc(S(=O)(=O)O)c23)cc1NC(=O)c1cccc(NC(=O)Nc2cccc(C(=O)Nc3cc(C(=O)Nc4ccc(S(=O)(=O)O)c5cc(S(=O)(=O)O)cc(S(=O)(=O)O)c45)ccc3C)c2)c1  viability (OCI-Ly1; 1 µM, 120 h): 166%
CC(=O)O[C@H]1C(=O)[C@@]2(C)[C@H]([C@H](OC(=O)c3ccccc3)[C@]3(O)C[C@H](OC(=O)[C@H](O)[C@@H](NC(=O)c4ccccc4)c4ccccc4)C(C)=C1C3(C)C)[C@]1(OC(C)=O)CO[C@@H]1C[C@@H]2O  adverse event incidence (refers to: lymphocyte count decreased; patients with advanced solid tumours; intravenous, dose not given, grade 3 and 4, possibly related to drug): 19%
O=C(O)CC[C@H](NC(=O)N[C@@H](CCCCNC(=O)[C@H](Cc1ccc2ccccc2c1)NC(=O)CCCCCNC(=O)CN1CCN(CC(=O)O)CCN(CC(=O)O)CCN(CC(=O)O)CC1)C(=O)O)C(=O)O [gallium-68 labelled]  tissue uptake (gamma counting; mouse, 22Rv1 xenograft, muscle; intravenous, 3.7 MBq, 2 h): 2.29 ± 0.36 %ID/g
COc1ccc([C@@H](O)c2cc(-c3ncnc4cc(N5CCOCC5)ccc34)c(F)cc2Cl)nn1  radiation skin injury TEAE (locally advanced rectal cancer; oral, 150 mg, added: capecitabine and radiotherapy): 33%
COc1ccc2nc([S+]([O-])Cc3ncc(CO)c(OC)c3C)[nH]c2c1 (stereo not shown)  R/S enantiomer ratio (human, dried plasma spots; 2 h, added: fluvoxamine and voriconazole): 3.37
Cc1nc2cccc(OCC(C)(C)C(=O)NC(C)C)c2c(N)c1C(=O)O  Cmax ratio (male Sprague-Dawley rat, plasma; dietary, 100 mg/kg/day; relative to: day 90 over day 7): 2.92
CNc1ccc(-c2nc3ccc(O)cc3s2)cc1 [carbon-11 labelled]  SUV (microPET/CT imaging; B6SJL mouse, normal, heart; intravenous, 10 min): 0.972 ± 0.306
Cc1cc(-c2nnc(N)nc2-c2ccc(F)cc2)cc(Cl)n1  patients with treatment-related adverse events (refers to: Nausea; human phase Ia/Ib colorectal cancer, immunotherapy-naive; oral, dose not given): 48%
COc1ccc2c(=O)n(C)c(-c3ccccc3)nc2c1  tissue-to-plasma ratio (Sprague-Dawley rat, male, small intestine; oral, 30 mg/kg, 0.25 h, mean): 25400
O=C(O)CNC(=O)c1ccccc1  plasma concentration (human plasma; mean, both sexes): 387 µM
O=C(N[C@H](Cc1c[nH]c2ccccc12)C(=O)Nc1ccncc1)c1ccc(N2CCN(c3ccc(F)c(F)c3)CC2)cc1F  concentration (Swiss Webster mouse, female, liver; oral, 50 mg/kg, 8 h, 20% HPβCD vehicle): 6.93 µM
O=C(O)[C@H]1O[C@@H](Oc2cc(-c3oc4cc(O)cc(O)c4c(=O)c3O)ccc2O)[C@H](O)[C@@H](O)[C@@H]1O  plasma concentration (human plasma; median): 0.0173 µM
COC(=O)c1ccc2c(c1)NC(=O)/C2=C(\Nc1ccc(N(C)C(=O)CN2CCN(C)CC2)cc1)c1ccccc1  AUClast geometric LS mean (healthy volunteers, plasma; oral, 150 mg, added: pirfenidone): 167 ng·h/mL
